# Assay results from different studies.
# A part holds a random share of what one study measured. ± marks the error that the study gave.

# Sample 1
# Organism: SARS-CoV-2 Wuhan spike VSV pseudovirus
# Read-out: pseudovirus entry
# Tested at: concentration not given
Compound,inhibition
O=C(OCCc1ccccc1/C=C\[N+](=O)[O-])c1ccc(C(F)(F)F)cc1,43%
O=C(Cn1ncc(Cl)c(Cl)c1=O)NC(=O)NCc1ccco1,40%
c1ccc(-c2cc(CN3CCN(c4ncnc5ccccc45)CC3)on2)cc1,40%
CCOC(=O)c1c(-c2ccc(N(C)C)cc2)n(C)c2cc(-c3cccnc3)c(O)cc12,51%
Clc1ccc2c(Sc3nnnn3C3CCCC3)ccnc2c1,44%
COc1ccc(-c2cnc(C)o2)cc1S(=O)(=O)N1CCN(CCOc2ccc(Cl)cc2)CC1,36%
Cc1ccc(CCNc2ncnc3scc(-c4ccc(F)cc4)c23)cc1,42%
Cc1ccnc(CC(C)N(C)C(=O)c2cc3ccccc3s2)c1 (stereo not drawn),46%
Cc1ccc(C(=O)C2=C(O)C(=O)N(CC(C)C)C2c2cccc(O)c2)cc1 (stereo not drawn),36%
Cn1ccc2ccn(CC(=O)Nc3cccc(Br)c3)c(=O)c21,40%
CC(C)(C)OC(=O)N1CCN(c2ncnc3sccc23)CC1,38%
O=C(NC1CC(=O)N(CCCc2ccccc2)C1)c1ccncc1 (stereo not drawn),42%
CN(CC(=O)N1CCN2C(=O)CN(C)C(=O)C2C1)Cc1ccc(F)cc1 (stereo not drawn),36%
COc1ccccc1Nc1c2c(nc3ccc(NC(=O)c4cccnc4)cc13)CCCC2,43%
Cc1ccc2[nH]c(CCc3cccc(NC(=O)C4CCCN(S(=O)(=O)N5CCCC5)C4)c3)nc2c1 (stereo not drawn),48%

# Other studies, line by line
# rep nsp12 RdRp: Replicase polyprotein 1ab, nsp12 RdRp (rep, Severe acute respiratory syndrome coronavirus 2, UniProt P0DTD1)
# Matrix protein 2 S31N: Matrix protein 2 (Influenza A virus, UniProt P0DOF5, S31N)
# rep nsp14: Replicase polyprotein 1ab, nsp14 (rep, Severe acute respiratory syndrome coronavirus 2, UniProt P0DTD1)
# rep papain-like protease: Replicase polyprotein 1ab, papain-like protease (rep, Severe acute respiratory syndrome coronavirus 2, UniProt P0DTD1)
Molecule,target or system,test,test system,setting,scale,endpoint,result
N#C[C@@]1(n2ccc(N)nc2=O)O[C@H](CO)[C@@H](O)[C@H]1O,SARS-CoV-2,viral replication,"Calu-3, Beta",,,EC50,0.2 ± 0.2 µM
Cc1ccc(Oc2nc3cc(-c4ccc(-c5ccccc5)cc4)c(Cl)cc3[nH]2)cc1C(=O)O,rep nsp12 RdRp,"binding, biolayer interferometry",,concentration not given,,BLI response,7.61 nm
CCC(CC)[C@H](NC(C)=O)[C@@H]1[C@H](O)[C@@H](C(=O)O)C[C@H]1N=C(N)N,"neuraminidase (Influenza B virus, UniProt A0A1S5RAG6, I221V)",,,,,IC50,0.0048 ± 0.0009 µM
CCC(CC)COC(=O)[C@H](C)N[P@](=O)(OC[C@H]1O[C@@](C#N)(c2ccc3c(N)ncnn23)[C@H](O)[C@@H]1O)Oc1ccccc1,SARS-CoV-2,viral replication,"Calu-3, Gamma",,,EC50,0.2 ± 0.1 µM
C1C2C1C1C3C4C5C6CC6C4C14CNCC54C23.Cl (stereo not drawn),Matrix protein 2 S31N,,,"concentration not given, pH 5.5, cell-based",,inhibition,0%
O=C(NC1CCN(c2ncnc3[nH]cnc23)CC1)c1cccc(S(=O)(=O)N2CCC2)c1,rep nsp14,"NSP14 enzyme activity, inhibitor",,50 µM,,inhibition,68.1%
NC1=N[C@@]2(c3cc(NC(=O)c4ccc(F)cn4)ccc3F)COC[C@H]2CS1,rep papain-like protease,,,"concentration not given, C111S mutant",reference: positive control,activity,21.2%
Nc1ncnc2c1ncn2[C@@H]1O[C@H](CSCC[C@H](N)C(=O)O)[C@@H](O)[C@H]1O,rep nsp14,thermal shift,,500 µM,,ΔTm,10 °C
CC(C)(C)c1nc(-c2cccc(NS(=O)(=O)c3c(F)cccc3F)c2F)c(-c2ccnc(N)n2)s1,rep nsp12 RdRp,"binding, biolayer interferometry",,concentration not given,,BLI response,0 nm
OC[C@H]1O[C@@H](n2cnc3c(N[C@@H]4CCOC4)ncnc32)[C@H](O)[C@@H]1O,SARS-CoV-2,infectious virus yield,"Vero C1008, Omicron BA.1",48 h,,EC50,2.86 ± 0.11 µM
CC(CC(=O)C[C@@H](C)[C@H]1CC(=O)[C@@]2(C)C3=C(C(=O)C[C@]12C)[C@@]1(C)CC[C@H](O)C(C)(C)[C@@H]1C[C@@H]3O)C(=O)O (stereo partly drawn),rep papain-like protease,,,"concentration not given, C111S mutant",reference: positive control,activity,18.4%
SLVAVTAAHSTIEEQAKTFLDKFN,SARS-CoV-2 spike RBD,peptide spot array,peptide,concentration not given,reference: wild-type ACE2 peptide,relative binding,3.1
CCN(CC)C12C3CCC4C3C3C(CCC31)C42.Cl,Matrix protein 2 S31N,,,"concentration not given, pH 5.5, cell-based",,inhibition,0%
CC(C)=CCNc1ncnc2c1ncn2[C@@H]1O[C@H](CO)[C@@H](O)[C@H]1O,SARS-CoV-2,viral RNA copies,"Vero C1008, Omicron BA.1",48 h,,EC50,0.42 ± 0.02 µM
SLVAVTAAQSTIEEQHKTFLDKFN,SARS-CoV-2 spike RBD,peptide spot array,peptide,concentration not given,reference: wild-type ACE2 peptide,relative binding,3.07

# For quick reference, copied from above (other studies, line by line):
Molecule,target or system,test,test system,setting,scale,endpoint,result
NC1=N[C@@]2(c3cc(NC(=O)c4ccc(F)cn4)ccc3F)COC[C@H]2CS1,rep papain-like protease,,,"concentration not given, C111S mutant",reference: positive control,activity,21.2%
CC(CC(=O)C[C@@H](C)[C@H]1CC(=O)[C@@]2(C)C3=C(C(=O)C[C@]12C)[C@@]1(C)CC[C@H](O)C(C)(C)[C@@H]1C[C@@H]3O)C(=O)O (stereo partly drawn),rep papain-like protease,,,"concentration not given, C111S mutant",reference: positive control,activity,18.4%
Nc1ncnc2c1ncn2[C@@H]1O[C@H](CSCC[C@H](N)C(=O)O)[C@@H](O)[C@H]1O,rep nsp14,thermal shift,,500 µM,,ΔTm,10 °C
O=C(NC1CCN(c2ncnc3[nH]cnc23)CC1)c1cccc(S(=O)(=O)N2CCC2)c1,rep nsp14,"NSP14 enzyme activity, inhibitor",,50 µM,,inhibition,68.1%
